Experimental data pooled from the literature.
Protocols differ between the studies behind these lines. Numbers after ± are the reported error.

SMILES | test | system | setting | scale | quantity | result
CN(C)C(=O)Oc1cccc2c1[n+]([O-])c1ccccc1[n+]2[O-] | PAMPA | artificial membrane in PBS | 50 µM, 5 h |  | log effective permeability | -4.95
CC[C@H](C)[C@H](NC(=O)[C@H](CO)NC(=O)[C@H](CCCNC(=N)N)NC(C)=O)C(=O)N[C@H]1CSSC[C@@H](C(=O)N[C@H](C(N)=O)[C@@H](C)O)NC(=O)[C@H](CCCNC(=N)N)NC(=O)[C@H](Cc2c[nH]cn2)NC(=O)[C@H](C)NC(=O)CNC(=O)[C@H](Cc2c[nH]c3ccccc23)NC(=O)[C@H](CC(=O)O)NC(=O)[C@H](CCC(N)=O)NC(=O)[C@H](Cc2ccc3ccccc3c2)NC(=O)[C@H](C(C)C)NC1=O | isocratic RP-HPLC | C18 column | pH 7.4, 25 °C, elution method 2 | higher = more lipophilic | log retention factor | 0.091
Clc1cc(Cl)c(-c2cc(Cl)ccc2Cl)c(Cl)c1 |  | fresh water | 20 °C |  | log K(PDMS-water) | 6.02 ± 0.04
CN1CC[C@]23c4c5ccc(O)c4O[C@H]2[C@@H](O)CC[C@@]3(O)[C@H]1C5 |  |  | phenolate protonated |  | log k amino protonation | 9.48
COc1ccnc(C(=O)N[C@H]2COC(=O)[C@H](Cc3ccccc3)[C@@H](OC(=O)C(C)C)[C@H](C)OC2=O)c1OCOC(=O)C(C)C |  |  | pH 7, 20 °C |  | log Kow | 4.4
CN1CC[C@]23c4c5ccc(O)c4O[C@H]2[C@@H](O)CC[C@H]3[C@H]1C5 |  |  |  |  | log k amino protonation | 9.49
Clc1cc(-c2cc(Cl)c(Cl)c(Cl)c2)cc(Cl)c1Cl |  | fresh water | 20 °C, S30-2 sampler, 30 µm |  | log K(PDMS-water) | 6.28 ± 0.06
CC(=O)N[C@@H](CC(N)=O)C(=O)N[C@@H](CC(N)=O)C(=O)N[C@@H](CC(C)C)C(=O)N[C@H]1CSSC[C@@H](C(=O)N[C@H](C(N)=O)[C@@H](C)O)NC(=O)[C@H](CCCNC(=N)N)NC(=O)[C@H](Cc2c[nH]cn2)NC(=O)[C@H](C)NC(=O)CNC(=O)[C@H](Cc2c[nH]c3ccccc23)NC(=O)[C@H](CC(=O)O)NC(=O)[C@H](CCC(N)=O)NC(=O)[C@H](Cc2c[nH]c3ccccc23)NC(=O)[C@H](C(C)C)NC1=O | isocratic RP-HPLC | C18 column | pH 7.4, 25 °C, elution method 2 | higher = more lipophilic | log retention factor | -0.402
CN1CC[C@]23c4c5ccc(O)c4O[C@H]2[C@@H](O)C=C[C@@]3(O)[C@H]1C5 |  |  | phenolate site |  | log k protonation constant | 9.17
CC[C@H](C)[C@H](NC(=O)[C@H](CO)NC(=O)[C@H](CCCNC(=N)N)NC(C)=O)C(=O)N[C@H]1CSSC[C@@H](C(=O)N[C@H](C(N)=O)[C@@H](C)O)NC(=O)[C@H](CCCNC(=N)N)NC(=O)[C@H](Cc2c[nH]cn2)NC(=O)[C@H](Cc2cccc3ccccc23)NC(=O)CNC(=O)[C@H](Cc2c[nH]c3ccccc23)NC(=O)[C@H](CC(=O)O)NC(=O)[C@H](CCC(N)=O)NC(=O)[C@H](Cc2c[nH]c3ccccc23)NC(=O)[C@H](C(C)C)NC1=O | isocratic RP-HPLC | C18 column | pH 7.4, 25 °C, elution method 2 | higher = more lipophilic | log retention factor | 0.417
Clc1cc(Cl)c(-c2ccc(Cl)c(Cl)c2Cl)cc1Cl |  | fresh water | 20 °C, S30-1 sampler, 30 µm |  | log K(PDMS-water) | 6.42 ± 0.06
CC[C@H](C)[C@H](NC(=O)[C@H](CCCNC(=N)N)NC(=O)[C@H](CCC(=O)O)NC(C)=O)C(=O)N[C@H]1CSSC[C@@H](C(=O)N[C@H](C(N)=O)[C@@H](C)O)NC(=O)[C@H](CCCNC(=N)N)NC(=O)[C@H](Cc2c[nH]cn2)NC(=O)[C@H](Cc2cccc3ccccc23)NC(=O)CNC(=O)[C@H](Cc2c[nH]c3ccccc23)NC(=O)[C@H](CC(=O)O)NC(=O)[C@H](CCC(N)=O)NC(=O)[C@H](Cc2cccc3ccccc23)NC(=O)[C@H](C(C)C)NC1=O | isocratic RP-HPLC, C18 | 32% acetonitrile, phosphate pH 7.4, 1% TFA | 25 °C |  | log retention factor | 0.514
Clc1ccc(Cl)c(-c2cc(Cl)c(Cl)cc2Cl)c1 |  | fresh water | 20 °C, SSP sampler, 100 µm |  | log K(PDMS-water) | 5.97 ± 0.02

A few entries again:
SMILES | test | system | setting | scale | quantity | result
CC[C@H](C)[C@H](NC(=O)[C@H](CO)NC(=O)[C@H](CCCNC(=N)N)NC(C)=O)C(=O)N[C@H]1CSSC[C@@H](C(=O)N[C@H](C(N)=O)[C@@H](C)O)NC(=O)[C@H](CCCNC(=N)N)NC(=O)[C@H](Cc2c[nH]cn2)NC(=O)[C@H](C)NC(=O)CNC(=O)[C@H](Cc2c[nH]c3ccccc23)NC(=O)[C@H](CC(=O)O)NC(=O)[C@H](CCC(N)=O)NC(=O)[C@H](Cc2ccc3ccccc3c2)NC(=O)[C@H](C(C)C)NC1=O | isocratic RP-HPLC | C18 column | pH 7.4, 25 °C, elution method 2 | higher = more lipophilic | log retention factor | 0.091
